Experimental data of several laboratories.
Every numbered part comes from another study and shows a few of its results, in no order. Substitutions count along the parent as printed.

Sample 1 — method: RNA Bind-n-Seq; molecule type: RNA; matrix: in vitro; concentration: 365 nM; baseline: no-protein control; reading: higher = stronger binding; endpoint: RBNS enrichment (R)
Target: RNA binding protein fox-1 homolog 2, RRM domain, GST-SBP tag (RBFOX2, Homo sapiens, UniProt O43251-10, residues 100-194)
Notes: natural RNA segment, single round, ends assumed
Construct (chain): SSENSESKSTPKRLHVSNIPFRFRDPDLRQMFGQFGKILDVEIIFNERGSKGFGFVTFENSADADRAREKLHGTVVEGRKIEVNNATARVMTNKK
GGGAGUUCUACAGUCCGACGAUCGGUGCCUCAUGCUGACUUCUCCAGUAGGGUUUCAGGACAAACUACCAAGGAAUUGCCUCAGCCUCCUACCAGUCCUCCCUCACCCACCUUCUGUCUAGGUUCACUUGGUUUGGAAUUCUCGGGUGCCAA: 0.366
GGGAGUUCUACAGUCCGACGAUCAAGGGUGAGAGGGGCCCUGAAAGUUCAUAUGGUGGGUAUGUCCCGCAGCAGAGUGAGGAGAUGAAGCUUACGUGUCCUGACGUUUUGUUGCUUAUACUGUGAUAUCUCAUUGGAAUUCUCGGGUGCCAA: 0.923
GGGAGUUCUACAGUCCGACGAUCAAAUAUCAUGGAUUGAACCUCAUCAAUUGAUAGCAGUGAGUGACUGAAGCUUCCAAAUCAAGAAAAGCCGGCACCAAGAACUUCCAUUCUAAUCUAGAGCUGACCAGUUUUGGAAUUCUCGGGUGCCAA: 0.309
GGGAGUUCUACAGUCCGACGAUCUAUGGCCGAAAUUUGGGAGCAGAAGAGGUGAUGUCAUCCUGGAAAACUGGGUAGUUCAUCUGACCAUGGGAUGUGUUUGUUAUGAAGAAAAUCUGGAUGCCUGUGAUUCGUGGAAUUCUCGGGUGCCAA: 1.55
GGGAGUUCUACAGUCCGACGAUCCCUGGCACACCCUAGUAGCCGGGUCUGGCCAGGCAGCGCCGCAUGGCUCUGAACAGCAACUCUGUCCCCCUCUGAGGUGAAACGGGAAACACACUGUACAUGUUGUGAACUGGAAUUCUCGGGUGCCAA: 0.668
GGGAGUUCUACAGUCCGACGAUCGGGAACUCCUCUCCCCCAUUUUGUGUAGAGUGAAAAUAGCCUGAAGCCCCUACUCAGCAGGGCUCUGGGAAUGUGCCUUCCUUAUUUUAGUUUCAGAAUUGCUGGGAAAGUGGAAUUCUCGGGUGCCAA: 2.11
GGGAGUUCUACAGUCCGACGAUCUGUGCAGCUUUGCAUAUACACACAUGCAUACAUGAGCCUCCACACAAGCACUUGCACACAUGUGGACUCCUAACCAUGCUAACCUCACUGGCUGGGAAGGUGGGGACCCCUGGAAUUCUCGGGUGCCAA: 0.399
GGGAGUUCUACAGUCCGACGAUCUGGGCCACCGCUGACUGUGCUCCCCACUACCCCUGAGGAAGAUGGGGGCAAGAAGACCAUGUUCCCUGCCUGUUCCCCCAGCUGCUUCUCCCAUCUUUUCUCUCUGUUCUUGGAAUUCUCGGGUGCCAA: 1.88

Sample 2 — target: CEP164, C-terminal peptide (human); method: DHFR complementation, deep sequencing; matrix: yeast; baseline: wild type; reading: higher = weaker binding; endpoint: binding free energy change
Notes: single substitutions, model-inferred values
Parent: PDZK1, PDZ domain 2 (human); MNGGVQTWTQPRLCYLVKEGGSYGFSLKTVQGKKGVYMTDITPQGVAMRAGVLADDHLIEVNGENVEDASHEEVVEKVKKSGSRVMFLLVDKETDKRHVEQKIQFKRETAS; partner HNRVKVYRF
V78T: 1.14 kcal/mol
V17H: 0.0785 kcal/mol
T109C: -0.202 kcal/mol
S70K: 0.196 kcal/mol
C14W: 1 kcal/mol
V46N: 0.413 kcal/mol
D95P: -0.0581 kcal/mol
K77Y: 0.153 kcal/mol
E100C: -0.0826 kcal/mol
D95E: -0.164 kcal/mol
K77P: -0.0558 kcal/mol
V99P: -0.148 kcal/mol
G35Y: 0.74 kcal/mol
N65L: 0.293 kcal/mol
R84Y: 0.263 kcal/mol
W8V: -0.194 kcal/mol
V75K: 2.16 kcal/mol
C14Y: 0.765 kcal/mol

Sample 3 — method: universal PBM; molecule type: double-stranded DNA, one strand shown; matrix: in vitro; concentration: 600 nM; reading: higher = stronger binding; endpoint: E-score
Target: Sal-like protein 4, full length isoform A (SALL4, Homo sapiens, UniProt Q9UJQ4, residues 1-1053)
UniProt Q9UJQ4, sequence (whole entry, looked up): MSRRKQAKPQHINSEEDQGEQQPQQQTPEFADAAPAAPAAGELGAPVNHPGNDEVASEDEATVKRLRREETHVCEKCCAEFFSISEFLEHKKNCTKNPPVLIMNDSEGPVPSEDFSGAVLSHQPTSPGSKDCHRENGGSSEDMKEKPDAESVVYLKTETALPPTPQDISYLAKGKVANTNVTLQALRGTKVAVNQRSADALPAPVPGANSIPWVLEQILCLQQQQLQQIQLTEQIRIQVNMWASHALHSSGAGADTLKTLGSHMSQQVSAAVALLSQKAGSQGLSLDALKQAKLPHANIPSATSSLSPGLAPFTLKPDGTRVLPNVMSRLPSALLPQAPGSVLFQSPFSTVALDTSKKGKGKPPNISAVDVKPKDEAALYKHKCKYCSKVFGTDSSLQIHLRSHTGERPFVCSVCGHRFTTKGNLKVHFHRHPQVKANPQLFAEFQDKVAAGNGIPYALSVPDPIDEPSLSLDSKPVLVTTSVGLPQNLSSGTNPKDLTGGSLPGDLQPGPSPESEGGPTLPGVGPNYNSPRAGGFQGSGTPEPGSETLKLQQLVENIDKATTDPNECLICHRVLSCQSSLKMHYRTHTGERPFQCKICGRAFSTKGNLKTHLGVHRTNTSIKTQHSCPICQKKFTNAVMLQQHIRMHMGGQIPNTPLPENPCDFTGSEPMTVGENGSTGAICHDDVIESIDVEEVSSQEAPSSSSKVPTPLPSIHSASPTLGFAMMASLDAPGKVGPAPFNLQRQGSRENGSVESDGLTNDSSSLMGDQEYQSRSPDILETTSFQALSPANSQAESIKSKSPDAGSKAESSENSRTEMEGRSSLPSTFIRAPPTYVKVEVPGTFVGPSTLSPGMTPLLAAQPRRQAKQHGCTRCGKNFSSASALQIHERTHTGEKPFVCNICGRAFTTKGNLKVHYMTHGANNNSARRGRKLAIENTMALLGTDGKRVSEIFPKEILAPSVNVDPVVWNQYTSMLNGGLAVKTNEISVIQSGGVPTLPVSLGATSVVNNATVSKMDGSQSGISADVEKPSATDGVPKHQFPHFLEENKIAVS
Notes: 8-mer, flanks averaged, mean of replicates
ACTAGGCG: 0.049
ATTGACCA: 0.152
TCCACAGA: -0.0148
AATTGCGT: 0.134
AAGTTTCG: -0.059
AGCGACGA: -0.1
ATTGATAC: 0.151
CCAAATTC: 0.075
TATTGTAA: 0.34
AGCTATAT: 0.233
CGTACGTC: -0.176
AGCCAGTG: -0.298
AGCGCATG: -0.187
TAGTCACA: 0.0701
AATGCAGC: -0.172
CCCTACGG: -0.184
GGTGGCCA: -0.212
AATTTCGC: 0.0987
CCGCCCAC: -0.249
ATGAGACA: 0.206
ATTAGAGC: 0.161
AAAGGCTT: 0.00447
ATGTCGGG: -0.0683

Sample 4 — method: protein binding microarray; molecule type: double-stranded DNA, one strand shown; matrix: in vitro; concentration: not given; baseline: not given; reading: higher = stronger binding; endpoint: E-score
Target: Histone acetyltransferase KAT6A, winged helix 1, GST fusion (KAT6A, Homo sapiens, UniProt Q92794, residues 1-85)
Notes: 8-mer, flanks averaged, mean of 2 arrays, mostly near background
Target sequence (chain): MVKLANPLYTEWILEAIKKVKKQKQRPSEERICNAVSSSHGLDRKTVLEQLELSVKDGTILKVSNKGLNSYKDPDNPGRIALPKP
GCCCGAGA: 0.0772
CTGTTCAC: -0.0799
GAAGGCTA: -0.112
CACTAGCG: 0.204
AACGCGTT: 0.31
AGGTGAAT: -0.0676
ACAAAGGA: -0.243
CGACCAGC: 0.119
GCGTCCTA: 0.142
ACTCAGCC: -0.0767
CTCCTACC: 0.0641
AGCACAGG: -0.0969
AACCAACG: -0.137
ACCTCACG: -0.0803
CGACCTCG: 0.134
CCAGAAAA: -0.314
AGACTAAC: -0.117

Sample 5 — method: RNA Bind-n-Seq; molecule type: RNA; matrix: in vitro; concentration: 1 µM; notes: whole 134-nt RNA, ends assumed; with: 150 mM KCl; baseline: input library; reading: higher = stronger binding; endpoint: log2 enrichment
Target: Ras GTPase-activating protein-binding protein 1, RRM domain (G3BP1, Homo sapiens, UniProt Q13283)
UniProt Q13283, sequence (whole entry, looked up): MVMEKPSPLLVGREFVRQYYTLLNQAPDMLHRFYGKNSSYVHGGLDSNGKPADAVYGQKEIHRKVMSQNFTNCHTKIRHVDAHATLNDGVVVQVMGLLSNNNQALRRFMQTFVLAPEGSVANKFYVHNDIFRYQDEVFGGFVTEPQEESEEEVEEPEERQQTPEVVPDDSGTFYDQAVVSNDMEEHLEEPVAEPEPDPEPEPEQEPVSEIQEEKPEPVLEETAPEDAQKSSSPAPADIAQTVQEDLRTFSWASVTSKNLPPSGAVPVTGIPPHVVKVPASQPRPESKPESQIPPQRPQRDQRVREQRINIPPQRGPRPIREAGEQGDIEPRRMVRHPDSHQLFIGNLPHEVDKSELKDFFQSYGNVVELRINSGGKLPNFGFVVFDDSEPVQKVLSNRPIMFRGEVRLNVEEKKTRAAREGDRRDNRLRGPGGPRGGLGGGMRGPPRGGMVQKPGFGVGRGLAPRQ
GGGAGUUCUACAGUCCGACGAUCAGUCCUGUGCUACACAUCGUAUGUACCGAAUCGGGGUUUUGGGGUUUUGGUUUUGGGGAAAGUAUUAUGUUACGCCGUUCGGAUCUGCACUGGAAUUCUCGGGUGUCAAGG: -0.0517
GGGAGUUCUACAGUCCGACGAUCACCACGCAGGUGGGCAUCUUUGGGAAGUGGGGCAAGGGGGGGAUAGGGAGGGGGGUAACACUUUGGGAACAGGUGGUCCCAGGUCGUUUCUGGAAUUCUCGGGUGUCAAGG: -0.47
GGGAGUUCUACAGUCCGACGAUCUAACUUUAGAGGAGGAUCUGAUGGAUAUGGCAGUGGACGUGGAUUUGGGGAUGGCAAUAAUGGGUAUGGAGGAGGACCUGGAGGUGGCAAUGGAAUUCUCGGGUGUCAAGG: -0.617
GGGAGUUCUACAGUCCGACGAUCAGUCCUGUGCUACACAUCGUAUGUACCGAAUCAAACCCAAACCCCCCCAAAUUUAAAAAAGUAUUAUGUUACGCCGUUCGGAUCUGCACUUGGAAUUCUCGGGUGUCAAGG: -0.118
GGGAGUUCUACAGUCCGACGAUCGUCCUGUGCUACACAUCGUAUGUACCGAAUCGGGGCCCCCGGGCCCCCGGGCCCCCGGAAAGUAUUAUGUUACGCCGUUCGGAUCUGCACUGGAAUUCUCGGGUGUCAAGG: -0.749
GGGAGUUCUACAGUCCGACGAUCCACAGACAACACGCACCCACACAGACACAAAGGGAAGGGGUUGGGAUGGGGACAGGGUGCACAGCAGGGCGGGGUAGGACCCCAGCCCCUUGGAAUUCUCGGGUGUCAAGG: -0.149
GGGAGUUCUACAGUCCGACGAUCUGGGAGGUGGAUUUUGUUUAUUUUUUUAGCUCAUUUCCAGGGGUGGGAAUGUUUUUUUAAUAUGUGUCAUGAAUAAAGUUGUUUUUGAAAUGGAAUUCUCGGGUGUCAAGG: 2.45
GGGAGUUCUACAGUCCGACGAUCAGUCCUGUGCUACACAUCGUAUGUACCGAAUCAAAUUUAAACCCAAACCCCCCCAAAAAAGUAUUAUGUUACGCCGUUCGGAUCUGCACUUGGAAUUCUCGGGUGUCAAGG: -0.16
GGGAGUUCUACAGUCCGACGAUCGUCCUGUGCUACACAUCGUAUGUACCGAAUCGGGAAAAAGGGGAAAAAGGGGAAAAAGGAAAGUAUUAUGUUACGCCGUUCGGAUCUGCAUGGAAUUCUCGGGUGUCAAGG: -0.0563

Repeated from above (sample 3):
AGCTATAT: 0.233
CGTACGTC: -0.176
AGCCAGTG: -0.298
AGCGCATG: -0.187
TAGTCACA: 0.0701
AATGCAGC: -0.172
CCCTACGG: -0.184
GGTGGCCA: -0.212
AATTTCGC: 0.0987
CCGCCCAC: -0.249
ATGAGACA: 0.206
ATTAGAGC: 0.161
AAAGGCTT: 0.00447
